Earlier results as cited in several papers.
Compare with care: the assays were run in different laboratories. Several values in a cell are separate wells, animals, samples, runs or records. ± marks the error that the study gave.
Chain of UniProt P21918 (whole entry, looked up): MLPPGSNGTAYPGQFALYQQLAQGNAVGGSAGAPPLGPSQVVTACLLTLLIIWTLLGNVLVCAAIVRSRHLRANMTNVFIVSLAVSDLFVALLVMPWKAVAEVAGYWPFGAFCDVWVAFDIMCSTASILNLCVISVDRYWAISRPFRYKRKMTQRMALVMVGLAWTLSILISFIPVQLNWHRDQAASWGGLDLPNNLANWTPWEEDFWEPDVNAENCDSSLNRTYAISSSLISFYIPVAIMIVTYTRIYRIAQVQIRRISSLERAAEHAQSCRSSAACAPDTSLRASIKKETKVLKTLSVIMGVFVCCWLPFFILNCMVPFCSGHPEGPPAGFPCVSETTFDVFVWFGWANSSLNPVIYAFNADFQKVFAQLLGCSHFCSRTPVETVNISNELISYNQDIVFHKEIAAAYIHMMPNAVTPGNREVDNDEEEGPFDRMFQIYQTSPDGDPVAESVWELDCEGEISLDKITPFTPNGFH

SMILES | target or system | test | test system | conditions | how to read | endpoint | value
O=C(O)C(Cl)(Cl)Cl | – | refers to: superoxide anion, lipid peroxidation, DNA damage | mouse, liver | 7.7 to 410 mg/kg/day, subchronic | – | dose of maximal hepatic oxidative damage | 410 mg/kg/day
NC(=O)N1c2ccccc2C=Cc2ccccc21 | – | – | human, plasma | total concentration, therapeutic range | – | therapeutic plasma concentration | 4 to 12 µg/mL
CN[C@H](CC(C)C)C(=O)N[C@H]1C(=O)N[C@@H](CC(N)=O)C(=O)N[C@H]2C(=O)N[C@H]3C(=O)N[C@H](C(=O)N[C@H](C(=O)O)c4cc(O)cc(O)c4-c4cc3ccc4O)[C@H](O)c3ccc(c(Cl)c3)Oc3cc2cc(c3O[C@@H]2O[C@H](CO)[C@@H](O)[C@H](O)[C@H]2O[C@H]2C[C@](C)(N)[C@H](O)[C@H](C)O2)Oc2ccc(cc2Cl)[C@H]1O | – | – | normal-weight adults | dose not given, per ideal body weight | – | volume of distribution | 0.65 L/kg
Oc1cc(Cl)c(-c2ccc(Cl)cc2Cl)c(Cl)c1Cl | – | refers to: hydroxylated PCB metabolite | human liver microsomes | – | – | enantiomeric fraction | 0.75
CCCCCOc1ccc(-c2cc(-c3ccc(C(=O)N[C@H]4C[C@@H](O)[C@@H](O)NC(=O)[C@@H]5[C@@H](O)[C@@H](C)CN5C(=O)[C@H]([C@H](O)CC(N)=O)NC(=O)[C@H]([C@H](O)[C@@H](O)c5ccc(O)c(OS(=O)(=O)O)c5)NC(=O)[C@@H]5C[C@@H](O)CN5C(=O)[C@H]([C@@H](C)O)NC4=O)cc3)no2)cc1 | – | – | adults with invasive candidiasis | 100 mg daily, steady state | – | AUC(0-24) | 97000 ng·h/mL
CC1(C)O[C@@H]2[C@@H](CO[C@@]3(COS(N)(=O)=O)OC(C)(C)O[C@@H]23)O1 | – | – | human, plasma | total concentration, therapeutic range | – | therapeutic plasma concentration | 5 to 25 µg/mL
CNCc1ccc(-c2[nH]c3cc(F)cc4c3c2CCNC4=O)cc1 | – | – | mouse | 50 mg/kg, 6 months, repeated 5-day schedule | – | toxicity | not toxic
CCCCCCCCCC(=O)N[C@@H](Cc1c[nH]c2ccccc12)C(=O)N[C@H](CC(N)=O)C(=O)N[C@@H](CC(=O)O)C(=O)N[C@@H]1C(=O)NCC(=O)N[C@@H](CCCN)C(=O)N[C@@H](CC(=O)O)C(=O)N[C@H](C)C(=O)N[C@@H](CC(=O)O)C(=O)NCC(=O)N[C@H](CO)C(=O)N[C@@H]([C@H](C)CC(=O)O)C(=O)N[C@@H](CC(=O)c2ccccc2N)C(=O)O[C@@H]1C | – | microdialysis | healthy human, soft tissue | intravenous, dose not given | reference: free plasma | tissue concentration | 74%
C=CCN(CC=C)CCc1c[nH]c2ccccc12 | D(1B) dopamine receptor (DRD5, Homo sapiens, UniProt P21918) | binding | cloned human receptor | added: [3H]SCH23390 | – | Ki | > 10 µM
CC1=C(/C=C/C(C)=C/C=C/C(C)=C/C(=O)O)C(C)(C)CCC1 | – | – | rabbit, plasma | – | – | Cmax at LOAEL | ~1000 nM
CCOc1ccc2cc(-c3nn(CC4CCN(C)CC4)c4ncnc(N)c34)ccc2n1 | – | – | mouse, GI tract except duodenum | oral, 30 mg/kg, up to 12 h | – | GI tissue concentration | 8 to 11 µM
CN[C@H]1CC[C@@H](c2ccc(Cl)c(Cl)c2)c2ccccc21 | – | – | human | 2250 mg, day 1 after admission, added: diazepam 200 mg and temazepam 400 mg | – | QTc interval | 525 ms
Cc1nc2cccc(OCC(C)(C)C(=O)NC(C)C)c2c(N)c1C(=O)O | – | – | pregnant rat | oral, embryo-fetal development, gestation days 6 to 20, highest dose tested | – | NOAEL | 1000 mg/kg/day
C=CC(=O)NCCCCCC(=O)N[C@@H](CCCCN)C(=O)N[C@@H](CC(C)C)C(=O)N[C@@H](C)C(=O)N[C@@H](CCCCN)C(=O)N[C@@H](CC(C)C)C(=O)N[C@@H](C)C(=O)N[C@@H](CCCCN)C(=O)N[C@@H](CCCCN)C(=O)N[C@@H](CC(C)C)C(=O)N[C@@H](C)C(=O)N[C@@H](CCCCN)C(=O)N[C@@H](CC(C)C)C(=O)N[C@@H](C)C(=O)N[C@@H](CCCCN)C(N)=O | – | – | – | amine groups | – | pKa | 9
CC1=C(/C=C/C(C)=C/C=C/C(C)=C/C(=O)Nc2ccc(O)cc2)C(C)(C)CCC1 | – | – | paediatric neuroblastoma patients | 2450 mg/m2 per day, maximum tolerated dose | – | plasma concentration | 9900 nM
CCCC(=O)NCCCC[C@H](NC(=O)[C@@H](NC(=O)[C@H](CCCCN)NC(=O)[C@H](CCCCN)NC(=O)[C@H](Cc1ccccc1)NC(=O)[C@H](CC(C)C)NC(=O)[C@H](CCCCN)NC(=O)[C@H](CCCCN)NC(C)=O)[C@@H](C)CC)C(=O)N[C@@H](CCCCN)C(=O)N[C@@H](Cc1ccc(O)cc1)C(=O)N[C@@H](CC(C)C)C(N)=O | – | – | horse erythrocytes 5 % v/v | 150 µM | – | hemolysis | 11 ± 5%
N#Cc1nn(-c2c(Cl)cc(C(F)(F)F)cc2Cl)c(N)c1S(=O)(=O)C(F)(F)F | – | – | rat, urine | oral gavage, 5 mg/kg fipronil | – | urine concentration | 8 ng/mL
O=C(N[C@H](Cc1ccccc1)C(=O)Nc1ccccc1N1CCOCC1)c1cccs1 | – | – | mouse liver microsomes | 0.5 µM, pH 7.4, 0.25 mg/mL protein | – | half-life | 13.2 h
CC[NH][Pt]([Cl])([Cl])([NH]CC)([O]C(=O)CCC(=O)OCC)[O]C(=O)CCC(=O)OCC | – | – | mouse | po, dose not given, 24 h | – | platinum in blood pellet | ~60%
O=C(O)C(F)(F)C(F)(F)C(F)(F)C(F)(F)C(F)(F)C(F)(F)C(F)(F)C(F)(F)C(F)(F)F | – | – | juvenile Chinook salmon, whole body wet weight | concentration not given, field-collected | – | maximum whole-body concentration | 0.78 ng/g
CC(=O)N[C@@H](CCONC(=N)N)C(N)=O | – | – | octanol-water | added: sodium dodecanoate 2.5 equiv | – | fraction in aqueous layer | 85.4 ± 0.6%

SMILES | target or system | test | test system | conditions | how to read | endpoint | value
ClC=C(Cl)Cl | – | refers to: N-acetylcysteine conjugates | Wistar rat, male, urine | intraperitoneal, 400 mg/kg | reference: dose | glutathione conjugation | 0.0026%
Cc1ccc(OCC(=O)N(Cc2cccs2)c2ccn[nH]2)cc1 | – | – | pregnant Crl:CD(SD) rats | oral gavage | – | NOAEL | 1000 mg/kg/day
O=S(=O)(O)C(F)(F)C(F)(F)C(F)(F)C(F)(F)C(F)(F)C(F)(F)C(F)(F)C(F)(F)F | – | – | human | – | – | elimination half-life | 1.5 to 10 years
CC(C)(c1ccc(O)cc1)c1ccc(O)cc1 | – | refers to: free compound | rhesus monkey female, plasma | oral, 0.4 mg/kg | – | dose-normalized Cmax | 9.88 (nmol/mL)/(mmol/kg) and ~10 (nmol/mL)/(mmol/kg)
Cn1c(=O)c2[nH]cnc2n(C)c1=O | – | – | octanol-water | – | – | logP | -0.17
Clc1cc2c(cc1Cl)Oc1cc(Cl)c(Cl)cc1O2 | – | – | zebrafish embryos | waterborne, 0.2 ppb, repeated at 4.8 and 31.2 hpf | – | body burden | ~1 ppb
O=C(O)CCCc1ccc(N(CCCl)CCCl)cc1 | – | – | plasma | concentration not given | – | Cmax | 1970 nM
CC[C@H](C)[C@H](NC(=O)[C@H](CCCCN)NC(=O)[C@H](CCCCN)NC(=O)[C@H](Cc1c[nH]nn1)NC(=O)[C@H](CC(C)C)NC(=O)[C@H](CCCCN)NC(=O)[C@@H](N)CCCCN)C(=O)N[C@@H](CC(C)C)C(=O)N[C@@H](CCCCN)C(=O)N[C@@H](Cc1ccc(O)cc1)C(=O)N[C@@H](CC(C)C)C(N)=O | – | – | horse erythrocytes 5 % v/v | 150 µM | – | hemolysis | 1 ± 0.2%
CN(CCCC(=O)O)N=O | – | – | rat | oral | – | TDLo | 6800 mg/kg
C=CC(=O)N1CCC(Oc2cc3c(Nc4ccc(Cl)c(Cl)c4F)ncnc3cc2OC)CC1 | – | – | advanced solid tumour patients | continuous dosing | – | maximum tolerated dose | 18 mg/day
CCCCCCCCCCCCCCCC[N+](C)(C)C | – | – | air-water interface | – | – | surface partition coefficient | 7.44e-06 m
CN(C(=O)n1cnc(-c2ccc[n+]([O-])c2)c1)C1CCCCC1 | – | – | plasma | oral, concentration not given | – | parent share of plasma AUC | > 90%
CC(C)[C@@H](Nc1ccc(C(F)(F)F)cc1Cl)C(=O)OC(C#N)c1cccc(Oc2ccccc2)c1 (some centres unmarked) | – | – | rat or mouse | oral | – | LD50 | 26 mg/kg
C[n+]1ccccc1/C=N/O | – | microdialysis | rat | intravenous, 10, 50, 100 mg/kg | – | brain penetration | 10%
c1ccoc1 | – | – | Big Blue rat | dose not given, 8 weeks, micronucleus, Pig-a, Hprt, cII | – | genotoxicity | negative
Cn1c(N)nc2ncc(-c3ccccc3)cc21 | – | – | hepatic Por knock-out mouse, extrahepatic tissues | dose not given | reference: wild type over knock-out | DNA adduct level decrease | 2 fold
CC1CO1 (centres unmarked) | – | spontaneous hydrolysis | potassium phosphate buffer | pH 7.4, 37 °C | – | half-life | 16 h
CC1(C)CCC(CN2CCN(c3ccc(C(=O)NS(=O)(=O)c4ccc(NCC5CCOCC5)c([N+](=O)[O-])c4)c(Oc4cnc5[nH]ccc5c4)c3)CC2)=C(c2ccc(Cl)cc2)C1 | – | – | human patients | 400 mg once daily, steady state, added: ivosidenib 500 mg once daily 14 days | reference: with over without ivosidenib | AUC ratio | 0.36
CN[C@H]1C(=O)N[C@@H]2Cc3ccc(cc3)Oc3cc4cc(c3O[C@@H]3O[C@H](C(=O)O)[C@@H](O)[C@H](O)[C@H]3NC(=O)CCCCCCCCC(C)C)Oc3ccc(cc3Cl)[C@@H](O)[C@@H]3NC(=O)[C@H](NC(=O)[C@@H]4NC(=O)[C@@H](NC2=O)c2cc(cc(O)c2Cl)Oc2cc1ccc2O)c1ccc(O)c(c1)-c1c(O[C@H]2O[C@H](CO)[C@@H](O)[C@H](O)[C@@H]2O)cc(O)cc1[C@@H](C(=O)NCCCN(C)C)NC3=O | – | – | adults mostly with skin infections | dose not given, population PK | – | half-life | 204 h
[CH3][Hg][Cl] | – | – | rat, perinatal exposure, brain and blood | 1 mg/kg daily | – | mercury level | ~5 µM

For quick reference, copied from above:
SMILES | target or system | test | test system | conditions | how to read | endpoint | value
CN[C@H]1C(=O)N[C@@H]2Cc3ccc(cc3)Oc3cc4cc(c3O[C@@H]3O[C@H](C(=O)O)[C@@H](O)[C@H](O)[C@H]3NC(=O)CCCCCCCCC(C)C)Oc3ccc(cc3Cl)[C@@H](O)[C@@H]3NC(=O)[C@H](NC(=O)[C@@H]4NC(=O)[C@@H](NC2=O)c2cc(cc(O)c2Cl)Oc2cc1ccc2O)c1ccc(O)c(c1)-c1c(O[C@H]2O[C@H](CO)[C@@H](O)[C@H](O)[C@@H]2O)cc(O)cc1[C@@H](C(=O)NCCCN(C)C)NC3=O | – | – | adults mostly with skin infections | dose not given, population PK | – | half-life | 204 h
CN[C@H]1CC[C@@H](c2ccc(Cl)c(Cl)c2)c2ccccc21 | – | – | human | 2250 mg, day 1 after admission, added: diazepam 200 mg and temazepam 400 mg | – | QTc interval | 525 ms
CC[NH][Pt]([Cl])([Cl])([NH]CC)([O]C(=O)CCC(=O)OCC)[O]C(=O)CCC(=O)OCC | – | – | mouse | po, dose not given, 24 h | – | platinum in blood pellet | ~60%
CCCC(=O)NCCCC[C@H](NC(=O)[C@@H](NC(=O)[C@H](CCCCN)NC(=O)[C@H](CCCCN)NC(=O)[C@H](Cc1ccccc1)NC(=O)[C@H](CC(C)C)NC(=O)[C@H](CCCCN)NC(=O)[C@H](CCCCN)NC(C)=O)[C@@H](C)CC)C(=O)N[C@@H](CCCCN)C(=O)N[C@@H](Cc1ccc(O)cc1)C(=O)N[C@@H](CC(C)C)C(N)=O | – | – | horse erythrocytes 5 % v/v | 150 µM | – | hemolysis | 11 ± 5%
